Measured values collected from several papers.
Each numbered part is a random draw from the data of one study; scales do not carry over between parts. Changes are numbered by the printed parent chain.
Sequence of UniProt Q16539 (whole entry, looked up): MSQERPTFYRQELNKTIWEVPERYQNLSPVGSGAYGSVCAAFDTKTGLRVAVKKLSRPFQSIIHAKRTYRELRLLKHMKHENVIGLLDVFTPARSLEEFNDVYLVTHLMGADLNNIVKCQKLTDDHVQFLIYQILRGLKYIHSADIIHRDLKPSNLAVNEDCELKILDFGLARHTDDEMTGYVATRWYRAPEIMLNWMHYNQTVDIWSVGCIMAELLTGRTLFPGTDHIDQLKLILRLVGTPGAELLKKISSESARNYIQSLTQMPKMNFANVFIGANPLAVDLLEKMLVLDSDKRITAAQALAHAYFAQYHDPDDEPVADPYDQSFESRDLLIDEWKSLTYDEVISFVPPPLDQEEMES
Sequence of UniProt Q15759 (whole entry, looked up): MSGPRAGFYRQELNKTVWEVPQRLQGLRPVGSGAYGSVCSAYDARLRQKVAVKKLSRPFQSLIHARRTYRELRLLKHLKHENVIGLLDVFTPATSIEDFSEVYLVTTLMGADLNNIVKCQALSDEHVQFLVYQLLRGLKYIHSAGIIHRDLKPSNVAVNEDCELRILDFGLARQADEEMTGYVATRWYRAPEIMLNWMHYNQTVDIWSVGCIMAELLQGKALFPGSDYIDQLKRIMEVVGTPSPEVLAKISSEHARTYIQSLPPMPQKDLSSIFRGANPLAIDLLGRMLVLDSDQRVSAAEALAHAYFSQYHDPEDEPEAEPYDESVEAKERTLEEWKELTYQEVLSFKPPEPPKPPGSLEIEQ
Sequence of UniProt Q8WXR4 (whole entry, looked up): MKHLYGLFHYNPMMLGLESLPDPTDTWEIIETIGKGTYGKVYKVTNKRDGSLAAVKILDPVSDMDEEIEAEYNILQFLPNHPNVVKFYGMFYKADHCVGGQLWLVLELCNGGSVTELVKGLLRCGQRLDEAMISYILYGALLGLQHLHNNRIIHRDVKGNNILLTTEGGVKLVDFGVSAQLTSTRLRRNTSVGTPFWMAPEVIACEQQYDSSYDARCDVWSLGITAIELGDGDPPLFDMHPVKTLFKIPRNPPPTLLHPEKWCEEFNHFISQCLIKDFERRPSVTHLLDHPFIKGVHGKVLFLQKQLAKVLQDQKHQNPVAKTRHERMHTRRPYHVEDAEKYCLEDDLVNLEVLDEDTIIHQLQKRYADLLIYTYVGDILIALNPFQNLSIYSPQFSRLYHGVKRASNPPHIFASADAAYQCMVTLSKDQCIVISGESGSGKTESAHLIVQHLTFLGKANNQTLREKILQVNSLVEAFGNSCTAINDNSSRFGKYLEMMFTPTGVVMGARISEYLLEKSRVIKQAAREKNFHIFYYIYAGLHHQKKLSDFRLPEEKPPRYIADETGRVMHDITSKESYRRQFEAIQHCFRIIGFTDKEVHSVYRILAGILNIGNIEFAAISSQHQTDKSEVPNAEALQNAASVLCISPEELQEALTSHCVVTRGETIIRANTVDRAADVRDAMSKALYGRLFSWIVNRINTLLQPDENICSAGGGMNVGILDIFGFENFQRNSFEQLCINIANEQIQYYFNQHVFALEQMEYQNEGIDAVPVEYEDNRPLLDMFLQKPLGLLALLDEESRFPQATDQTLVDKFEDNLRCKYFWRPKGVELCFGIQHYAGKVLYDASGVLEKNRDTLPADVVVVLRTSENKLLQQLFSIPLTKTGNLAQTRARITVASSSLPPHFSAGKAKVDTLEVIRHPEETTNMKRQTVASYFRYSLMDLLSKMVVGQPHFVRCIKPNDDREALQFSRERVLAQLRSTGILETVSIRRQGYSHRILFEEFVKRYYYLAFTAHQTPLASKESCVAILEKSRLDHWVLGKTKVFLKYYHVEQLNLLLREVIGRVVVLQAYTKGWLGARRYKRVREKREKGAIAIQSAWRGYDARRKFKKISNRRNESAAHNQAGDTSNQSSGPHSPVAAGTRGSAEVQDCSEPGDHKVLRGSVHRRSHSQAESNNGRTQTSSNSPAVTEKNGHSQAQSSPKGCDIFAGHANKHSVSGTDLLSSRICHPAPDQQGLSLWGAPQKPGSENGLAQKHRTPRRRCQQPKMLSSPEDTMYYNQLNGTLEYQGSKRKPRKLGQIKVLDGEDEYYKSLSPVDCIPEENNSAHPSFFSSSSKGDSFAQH
Sequence of UniProt Q96L34 (whole entry, looked up): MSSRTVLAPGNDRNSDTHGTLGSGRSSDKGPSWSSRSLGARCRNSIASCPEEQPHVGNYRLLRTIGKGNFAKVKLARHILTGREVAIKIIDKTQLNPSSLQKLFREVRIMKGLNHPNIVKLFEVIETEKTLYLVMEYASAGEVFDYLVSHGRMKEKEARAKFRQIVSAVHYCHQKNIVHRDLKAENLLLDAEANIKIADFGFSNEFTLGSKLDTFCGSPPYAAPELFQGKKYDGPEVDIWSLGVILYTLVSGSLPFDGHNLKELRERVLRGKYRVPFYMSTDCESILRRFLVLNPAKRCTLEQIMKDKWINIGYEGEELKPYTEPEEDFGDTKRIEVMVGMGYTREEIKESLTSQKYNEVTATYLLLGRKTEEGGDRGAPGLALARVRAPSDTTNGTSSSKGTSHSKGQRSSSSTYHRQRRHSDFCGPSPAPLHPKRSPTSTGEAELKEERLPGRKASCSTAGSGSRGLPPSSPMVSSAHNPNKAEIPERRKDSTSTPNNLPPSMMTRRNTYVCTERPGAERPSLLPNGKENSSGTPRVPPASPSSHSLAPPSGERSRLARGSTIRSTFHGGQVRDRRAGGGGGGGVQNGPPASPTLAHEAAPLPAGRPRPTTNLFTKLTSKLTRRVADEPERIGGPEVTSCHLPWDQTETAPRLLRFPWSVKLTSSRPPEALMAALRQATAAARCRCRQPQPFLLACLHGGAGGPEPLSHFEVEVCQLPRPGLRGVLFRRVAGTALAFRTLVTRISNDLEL
Sequence of UniProt Q9Y5S2 (whole entry, looked up): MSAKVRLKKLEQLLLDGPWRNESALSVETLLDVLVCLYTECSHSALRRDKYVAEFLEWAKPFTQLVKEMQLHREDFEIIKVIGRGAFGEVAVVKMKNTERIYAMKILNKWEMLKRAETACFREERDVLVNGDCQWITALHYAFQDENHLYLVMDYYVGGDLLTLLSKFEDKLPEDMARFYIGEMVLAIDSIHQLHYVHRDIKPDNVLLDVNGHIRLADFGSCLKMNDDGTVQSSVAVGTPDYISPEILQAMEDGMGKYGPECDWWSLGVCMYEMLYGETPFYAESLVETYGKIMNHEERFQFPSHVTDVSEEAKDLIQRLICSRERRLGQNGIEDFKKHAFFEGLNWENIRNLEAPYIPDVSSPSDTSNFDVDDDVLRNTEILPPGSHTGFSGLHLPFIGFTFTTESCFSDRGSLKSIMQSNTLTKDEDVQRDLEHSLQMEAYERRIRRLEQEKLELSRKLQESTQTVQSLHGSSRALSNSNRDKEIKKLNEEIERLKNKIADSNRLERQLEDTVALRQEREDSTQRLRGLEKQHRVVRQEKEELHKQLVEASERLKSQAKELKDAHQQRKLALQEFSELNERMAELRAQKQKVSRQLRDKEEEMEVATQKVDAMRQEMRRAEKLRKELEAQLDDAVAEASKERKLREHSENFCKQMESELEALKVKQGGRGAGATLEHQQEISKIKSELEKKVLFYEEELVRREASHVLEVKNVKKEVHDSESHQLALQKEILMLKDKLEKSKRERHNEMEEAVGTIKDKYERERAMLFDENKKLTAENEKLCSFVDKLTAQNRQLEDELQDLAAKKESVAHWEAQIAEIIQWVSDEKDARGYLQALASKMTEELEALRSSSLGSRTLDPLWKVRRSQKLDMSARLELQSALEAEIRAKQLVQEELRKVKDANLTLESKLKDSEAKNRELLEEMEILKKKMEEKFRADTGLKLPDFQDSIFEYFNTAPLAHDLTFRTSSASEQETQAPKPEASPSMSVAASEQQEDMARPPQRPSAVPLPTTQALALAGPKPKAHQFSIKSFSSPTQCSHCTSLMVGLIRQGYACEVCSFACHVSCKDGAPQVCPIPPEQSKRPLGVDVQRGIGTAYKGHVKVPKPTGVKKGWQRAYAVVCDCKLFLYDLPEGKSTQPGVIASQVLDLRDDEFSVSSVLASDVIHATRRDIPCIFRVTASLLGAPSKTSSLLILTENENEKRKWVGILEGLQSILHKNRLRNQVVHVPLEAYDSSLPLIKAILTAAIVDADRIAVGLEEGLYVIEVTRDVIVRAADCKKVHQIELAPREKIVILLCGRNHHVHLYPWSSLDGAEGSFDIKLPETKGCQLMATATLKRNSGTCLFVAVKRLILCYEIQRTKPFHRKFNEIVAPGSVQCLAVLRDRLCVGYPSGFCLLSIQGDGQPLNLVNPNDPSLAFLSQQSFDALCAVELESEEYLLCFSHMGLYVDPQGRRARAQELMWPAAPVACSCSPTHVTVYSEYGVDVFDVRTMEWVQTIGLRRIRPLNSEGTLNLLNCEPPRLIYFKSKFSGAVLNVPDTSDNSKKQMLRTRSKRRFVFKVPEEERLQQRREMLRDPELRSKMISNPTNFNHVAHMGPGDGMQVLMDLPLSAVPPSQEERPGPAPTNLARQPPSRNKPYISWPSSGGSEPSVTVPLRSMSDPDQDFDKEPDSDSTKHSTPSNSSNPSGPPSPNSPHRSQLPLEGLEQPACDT

Sample 1
Target: CRIPT, C-terminal peptide
Method: DHFR complementation, deep sequencing
Sample: yeast
Setting: single substitutions, model-inferred values
Reference: wild type
Reading: higher = weaker binding
Parent: ERBIN, PDZ domain 1 (human); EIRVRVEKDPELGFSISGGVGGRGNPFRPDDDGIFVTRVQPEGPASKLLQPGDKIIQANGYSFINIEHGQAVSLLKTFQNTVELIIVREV; partner TKNYKQTSV
| Substitution | binding free energy change |
| --- | --- |
| G19M | 1.22 kcal/mol |
| G22F | 0.597 kcal/mol |
| N25E | 1.06 kcal/mol |
| E83I | 0.202 kcal/mol |
| P10D | -0.294 kcal/mol |
| A71R | 1.06 kcal/mol |
| P10M | -0.554 kcal/mol |
| G19W | 1.31 kcal/mol |

Sample 2
SMILES: CCCNC(=O)Nc1ccc(Oc2ncnc3cc(OC)c(OC)cc23)cc1Cl
Effect on: enzyme activity
Mode: inhibitor
Concentration: 0.5 µM
Reference: control
| target | remaining activity |
| --- | --- |
| Vascular endothelial growth factor receptor 2 (KDR, Homo sapiens, UniProt P35968) | 19.7% |
| Rho-associated protein kinase 1 (ROCK1, Homo sapiens, UniProt Q13464) | 99.7% |
| cGMP-dependent protein kinase 2 (PRKG2, Homo sapiens, UniProt Q13237) | 97% |
| Discoidin domain-containing receptor 2 (DDR2, Homo sapiens, UniProt Q16832) | 67.6% |
| Myosin-IIIb (MYO3B, Homo sapiens, UniProt Q8WXR4) | 76.2% |
| Serine/threonine-protein kinase PLK3 (PLK3, Homo sapiens, UniProt Q9H4B4) | 95% |
| Serine/threonine-protein kinase MARK2 (MARK2, Homo sapiens, UniProt Q7KZI7) | 96.2% |
| Mitogen-activated protein kinase 14 (MAPK14, Homo sapiens, UniProt Q16539) | 122% |
| Serine/threonine-protein kinase MRCK beta (CDC42BPB, Homo sapiens, UniProt Q9Y5S2) | 87.4% |
| Calcium/calmodulin-dependent protein kinase type 1B (PNCK, Homo sapiens, UniProt Q6P2M8) | 95.4% |
| Dual specificity mitogen-activated protein kinase kinase 1 (MAP2K1, Homo sapiens, UniProt Q02750) | 99.2% |
| Mitogen-activated protein kinase 11 (MAPK11, Homo sapiens, UniProt Q15759) | 88.5% |
| Mitogen-activated protein kinase 1 (MAPK1, Homo sapiens, UniProt P28482) | 101% |
| MAP/microtubule affinity-regulating kinase 4 (MARK4, Homo sapiens, UniProt Q96L34) | 110% |

Sample 3
Target: Beta-1 adrenergic receptor (ADRB1, Homo sapiens, UniProt P08588)
Sequence of UniProt P08588 (whole entry, looked up): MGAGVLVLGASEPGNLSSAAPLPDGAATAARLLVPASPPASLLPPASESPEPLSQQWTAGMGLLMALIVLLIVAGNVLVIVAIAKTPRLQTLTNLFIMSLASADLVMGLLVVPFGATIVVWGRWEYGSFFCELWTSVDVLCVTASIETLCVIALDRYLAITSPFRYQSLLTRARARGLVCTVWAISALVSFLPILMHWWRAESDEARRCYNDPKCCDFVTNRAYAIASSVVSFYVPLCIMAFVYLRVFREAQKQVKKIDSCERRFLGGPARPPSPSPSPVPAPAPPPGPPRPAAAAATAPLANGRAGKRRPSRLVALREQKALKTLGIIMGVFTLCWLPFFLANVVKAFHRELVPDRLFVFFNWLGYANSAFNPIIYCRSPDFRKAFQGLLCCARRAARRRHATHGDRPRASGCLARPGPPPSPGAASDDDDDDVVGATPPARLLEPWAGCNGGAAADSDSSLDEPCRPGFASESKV
Mode: antagonist
| SMILES | IC50 [nM] |
| --- | --- |
| Cc1cc(N(C)C)ccc1NC(=O)c1ccc2noc(-c3ccccc3)c2c1 | ≥ 100000 |
| CN(CC(O)COc1cccc(CNCCOc2ccccc2)c1)C1CCCCC1 (stereo not shown) | ≥ 100000 |
| O=C(Nc1ccc([C@@H](O)[C@H]2COCC(=O)N2CCCc2ccccc2)cc1)c1ccco1 | ≥ 100000 |

Sample 4
Organism: Plasmodium berghei
Mode: inhibitor
Cell line: Huh-7
Strain: GFP-expressing, liver stage
Concentration: 10 µM
Time: 24 h
Reference: untreated control
| SMILES | infection rate |
| --- | --- |
| Cc1ncc(CO)c(CO)c1O | 93.3% |
| COC(=O)C1=C(C)NC(C)=C(C(=O)OCC(C)C)C1c1ccccc1[N+](=O)[O-] (stereo not shown) | 110% |
| CCCc1nn(C)c2c(=O)[nH]c(-c3cc(S(=O)(=O)N4CCN(C)CC4)ccc3OCC)nc12 | 73.3% |
| CN1CC(=O)N2[C@H](c3ccc4c(c3)OCO4)c3[nH]c4ccccc4c3C[C@@H]2C1=O | 86.1% |

Other studies, line by line
| Structure (SMILES) | target or system | assay | setting | measurement | value |
| --- | --- | --- | --- | --- | --- |
| Cc1cc2c(C(N)=O)c(N)n(-c3c(C)ccc(O)c3C)c2nc1C | HCT-116 | MEK phosphorylation, paradoxical activator, item: phospho-MEK | – | EC50 | 30.2 nM |
| COc1ccccc1OCCNCC(O)COc1cccc2[nH]c3ccccc3c12 (stereo not shown) | Synaptic vesicular amine transporter (SLC18A2, Homo sapiens, UniProt Q05940) | transporter uptake, inhibitor, radiometric | cell membranes | IC50 | 53 nM |
